Assay results from different studies.
± marks the error that the study gave.

CC1=C(O)C(=O)C=C2C1=CC=C1[C@@]2(C)CC[C@@]2(C)[C@@H]3C[C@](C)(C(=O)NCCOCCOCCOCCOCC(=O)N[C@H](C(=O)N4C[C@H](O)C[C@H]4C(=O)N[C@@H](C)c4ccc(-c5scnc5C)cc4)C(C)(C)C)CC[C@]3(C)CC[C@]12C — protein level (Nuclear receptor subfamily 4 group A member 1 (Nr4a1, Mus musculus, UniProt P12813); degrader, immunoblotting; SW1 mouse melanoma; concentration not given, 16 h): decreased
CNc1ccccc1C(=O)O[C@H]1C[C@H](n2cnc3c(N)ncnc32)O[C@@H]1COP(=O)(O)OP(=O)(O)O — pocket reverse rate constant (Unconventional myosin-Va (Gallus gallus, UniProt Q02440, D297C/G292C/I296C/S293C/V295G); stopped-flow FRET; 25 °C, with: MgCl2 2 mM): 5.79 ± 0.2 s⁻¹
COC(=O)c1ccc(CNC(=O)[C@@H]2C[C@@H](O)CN2C(=O)Cc2ccccc2)cc1 — entropic term (−TΔS) (von Hippel-Lindau disease tumor suppressor, with Elongin B/C (VHL, Homo sapiens, UniProt P40337); isothermal titration calorimetry; 25 °C): -2.96 ± 0.04 kcal/mol
CN(C1COC1)C(C)(C)/C=C(\C#N)C(=O)N1CCC[C@H]1Cn1nc(-c2ccc(Oc3ccccc3)cc2F)c2c(N)ncnc21 — receptor occupancy (Tyrosine-protein kinase (Rattus norvegicus, UniProt Q5S255); rat, PBMC; oral, 40 mg/kg, 14 (unit not given)): 57 ± 9%
CN(C(=O)Cn1c(=O)oc2ccc(-c3ccc(OCC[18F])cc3)cc21)c1ccccc1 — maximum radioactivity ratio (Tspo (Rattus norvegicus, UniProt P16257); PET; Sprague-Dawley rat focal ischemia, striatum; 60 min; relative to: ipsilateral over contralateral): 3.2 ± 0.12
N#Cc1cnc(Nc2nc3ccccc3o2)nc1-c1ccc(Cl)c(Cl)c1 — maximal response (Grm5 (Rattus norvegicus, UniProt P31424); calcium mobilization, negative allosteric modulator; with: glutamate EC80; relative to: maximal glutamate response): 46 ± 13%
Clc1ccccc1C(Nc1ncccn1)(c1ccccc1)c1ccccc1 — activity (Gap junction alpha-8 protein (Gja8, Mus musculus, UniProt P28236); N2a; 10 µM): active
CCOCCNC(=O)N1CCC[C@H](c2n[nH]c(-c3ccccc3)n2)C1 — apparent Km (Aromatase (CYP19A1, Homo sapiens, UniProt P11511); enzyme activity, inhibitor, MFC to HFC conversion; 5 µM, with: MFC substrate): 38 µM
N#C/C(=C\c1cccc(-c2ccncc2)c1)C(N)=O — max non-inhibitory concentration (RPS6KA5 (Homo sapiens, UniProt O75582, C440V); autophosphorylation, inhibitor; transfected COS-7; with: PMA): > 20 µM
CC[C@H](C)[C@H](NC(=O)[C@@H](NC(=O)[C@H](Cc1ccc(O)cc1)NC(=O)[C@H](Cc1ccc(OP(=O)(O)O)cc1)NC(=O)[C@H](CC(N)=O)NC(=O)[C@H](CCC(=O)O)NC(=O)[C@H](Cc1ccccc1)NC(=O)[C@@H](NC(=O)[C@H](CO)NC(=O)[C@H](CCC(=O)O)NC(=O)[C@H](CCCCN)NC(=O)[C@H](Cc1ccccc1)NC(=O)[C@@H](N)CCCCN)C(C)C)C(C)C)C(=O)N[C@@H](Cc1ccc(O)cc1)C(=O)N[C@@H](CO)C(=O)N[C@@H](CO)C(=O)N[C@@H](CCSC)C(=O)N[C@@H](CC(C)C)C(=O)N[C@@H](Cc1ccc(O)cc1)C(=O)N[C@@H](CCCNC(=N)N)C(N)=O — kon (Fibroblast growth factor 14 (Homo sapiens, UniProt Q92915)): 329 ± 120 M⁻¹ s⁻¹
CC(C)n1ccc2c(N3CCN(CCCCOc4ccc5c(c4)NC(=O)CC5)CC3)cccc21 — activity (DRD2 (Homo sapiens, UniProt P14416); Gi/o signalling, agonist; human cells; concentration not given; relative to: quinpirole): inactive
CN(C)c1ccc2c(-c3ccc(C(=O)NCCCC[C@@H](NC(=O)[C@@H](CCCNC(=N)N)NC(=O)[C@@H](CCCNC(=N)N)NC(=O)[C@@H](CCCNC(=N)N)NC(=O)[C@@H](CCCNC(=N)N)NC(=O)[C@@H](CCCNC(=N)N)NC(=O)[C@@H](CCCNC(=N)N)NC(=O)CCCCCNC(=O)[C@@H](CCCNC(=N)N)NC(=O)CCCCCNC(=O)c4ccc(-c5ccnc(N)n5)s4)C(N)=O)cc3C(=O)[O-])c3ccc(=[N+](C)C)cc-3oc2c1 — affinity increase by cGMP (cGMP-dependent protein kinase 1, isoform alpha (PRKG1, Homo sapiens, UniProt Q13976); fluorescence anisotropy; with: cGMP, no Mg2+): 5 fold

Some of these lines once more:
N#Cc1cnc(Nc2nc3ccccc3o2)nc1-c1ccc(Cl)c(Cl)c1 — maximal response (Grm5 (Rattus norvegicus, UniProt P31424); calcium mobilization, negative allosteric modulator; with: glutamate EC80; relative to: maximal glutamate response): 46 ± 13%
